Assay results collected from several papers.
Each line is one published result; not all experiments were run side by side. Numbers after ± are the reported error.
HCK Y522F: Tyrosine-protein kinase HCK (HCK, Homo sapiens, UniProt P08631, Y522F)
HCK: Tyrosine-protein kinase HCK (HCK, Homo sapiens, UniProt P08631)

SMILES	target	test	conditions	how to read	endpoint	value
CC(C)n1nc(-c2ccc3cc(OCc4ccccc4)ccc3c2)c2c(N)ncnc21	HCK Y522F	SH3 domain accessibility, polyproline peptide pull-down	5 µM	–	kinase retained	0%
Nc1ncc2c(n1)-c1c([nH]c3ccc(C4=CCOCC4)cc13)CCC2	HCK	binding, competition with immobilised ligand	1 µM	–	remaining binding	100%
C=CC(=O)N1Cc2nc(-c3cc(-c4cc(Cl)cnc4Cl)c(F)cc3F)n(-c3ccncn3)c2C1	HCK	cell-free assay	1 µM	–	inhibition	4.7%
COc1c(OCCCN2CCOCC2)ccc2c1N=C(NC(=O)c1cnc(N)nc1)N1CCN=C21	HCK	kinase activity, inhibitor	1 µM	reference: untreated control	remaining activity	98%
COc1c(Cl)cccc1Nc1c(-c2ccncc2C#C[C@@]2(C)CCCN2C(=O)/C=C/CN(C)C)[nH]c2c1C(=O)NCC2	HCK	cell-free assay, competition with immobilised ligand	3 µM	–	remaining binding	88%
Nc1ncc(-c2cc(-c3cnn(CC(F)(F)F)c3)ncc2F)nc1C(=O)NC1CNCC(F)C1 (stereo not shown)	HCK	enzyme activity	1 µM	reference: DMSO control	remaining activity	76%
CNC(=O)C1CCN(c2cc(C)c(F)cc2NC(=O)c2ccc(-c3cc(O)ccc3C)c(C)c2)CC1	HCK	binding, competition with immobilised ligand	1 µM	–	remaining binding	16%
C=CC(=O)Nc1cccc(-c2cnc3[nH]cc(C(=O)NC(C)(C)C)c3n2)c1	HCK	enzyme activity, inhibitor	0.1 µM	–	inhibition	10%
Cc1ccc(-c2c(/C=C(\C#N)C(=O)NC(C)C)n(CCCO)c3ncnc(N)c23)cc1	HCK	cell-free assay, competition with immobilised ligand	1 µM	–	remaining binding	57%
COc1cc(Nc2nccc(-c3cnn4nc(OC)ccc34)n2)cc(C(F)(F)F)c1	HCK	binding, competition with immobilised ligand	1 µM	–	remaining binding	91%
COc1ccc(NC(=O)Nc2ccc3c(c2)C(=O)N(C(C)CO)CC(C)C(CN(C)Cc2ccc4c(c2)OCO4)O3)cc1 (stereo not shown)	HCK	kinase activity, KinaseProfiler	0.03 µM, species human	reference: control	remaining activity	94%
Cc1cccc(O[C@H]2CCC[C@@H](C(C)CNCc3ccncc3)C2)c1 (relative stereo)	HCK	cell-free assay	1 µM	–	inhibition	6%
CNC1C[S+]2CC[S+]3CC[S+](C1)[Ru-4]321([N]=C=S)[n]2c3ccc(OC)cc3c3c4c(c5cc(F)c[n+]1c5c32)C(=O)NC4=O (stereo not shown)	HCK	KinomeScan	0.1 µM	reference: untreated	remaining binding	85%
CC(C)=CC1OC(C)(C)C2C=C3C(=O)C(Cl)=CC(O)C3C3C(O)C4OC4C(=O)C132 (stereo not shown)	HCK	cell-free assay, competition with immobilised ligand	10 µM	–	remaining binding	78%
CC(C)n1nc(-c2ccc3cc(OCc4cccc(Cl)c4)ccc3c2)c2c(N)ncnc21	HCK Y522F	SH3 domain accessibility, polyproline peptide pull-down	5 µM	–	kinase retained	1 ± 0.5%
NC(=O)[C@@H](O)C[C@H]1CCc2sc3ncnc(O[C@H]4CC[C@H](N5CCOCC5)CC4)c3c21	HCK	enzyme activity, inhibitor	10 µM	–	inhibition	43%

Excerpt of the above:
SMILES	target	test	conditions	how to read	endpoint	value
Cc1ccc(-c2c(/C=C(\C#N)C(=O)NC(C)C)n(CCCO)c3ncnc(N)c23)cc1	HCK	cell-free assay, competition with immobilised ligand	1 µM	–	remaining binding	57%
CC(C)=CC1OC(C)(C)C2C=C3C(=O)C(Cl)=CC(O)C3C3C(O)C4OC4C(=O)C132 (stereo not shown)	HCK	cell-free assay, competition with immobilised ligand	10 µM	–	remaining binding	78%
COc1c(Cl)cccc1Nc1c(-c2ccncc2C#C[C@@]2(C)CCCN2C(=O)/C=C/CN(C)C)[nH]c2c1C(=O)NCC2	HCK	cell-free assay, competition with immobilised ligand	3 µM	–	remaining binding	88%
